Measurements pooled from the literature.
Parts stem from different laboratories: compare values within a part only.

Study 1
Target: RNA binding protein fox-1 homolog 2, RRM domain, GST-SBP tag (RBFOX2, Homo sapiens, UniProt O43251-10, residues 100-194)
Technique: RNA Bind-n-Seq
Molecule type: RNA
Matrix: in vitro
Concentration: 365 nM
Notes: natural RNA segment, single round, ends assumed
Relative to: no-protein control
Direction: higher = stronger binding
All sequences stand within: GGGAGUUCUACAGUCCGACGAUC … UGGAAUUCUCGGGUGCCAA
Construct (chain): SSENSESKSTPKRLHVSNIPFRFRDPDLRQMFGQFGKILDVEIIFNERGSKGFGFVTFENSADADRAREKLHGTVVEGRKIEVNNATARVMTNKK
Oligonucleotide	RBNS enrichment (R)
UCCCAUCAGGCUCCUUGGAAAGUGCUUCUACUUCCGAAGCCAACCCUGAGGGGCACUCAGCCAGCUCUGACCAGGACCCUGUGGCAGACAGAGAGGGCAGCCCGGUCUCC	0.378
AGGCUUUCAUUUCACUUCAGAUUCAGCGGUGGGAGAGUGAGCUAGUACUGUCCUAACCCUGGCUUUUCAGUUAAUGUUUCCAUCUGUGAAGCUUGGAAACACAGCUGGGA	0.554
CGGGUGCCGUGGCUCAUGCCUGUCAUCCCAGCAUUUGGGAGGCUGAGGCAGGCAGAUCACCUGAGGCCAGGAGUUCGAGACCAGCCUGGCUGGCUAGCAUGGUGAGACCG	14
CUUUGCUAUGUAGCUUAGAGUGACCUUAAACUUAUGAUCCCCCUGCCUCCACCUCCUCAAUGCCGUACCACUAUACCAGUUUGAGUGGUGCUGGGUAUGGAACCCAGGGC	0.353
AACCCUUCCAGUCCCAGUGCUGCCAAGCGGCGCCGCACGUAACCCUCAGCCCUGGUGGCGGCAGAGAAGCGGGCGAGGCACUGUGGUCGCUGAGGGGGUUGGCUGGGUCU	0.319
UACUACUAAAAGCCAGAAAGAACAGAACAGUGGCCUCAGGAGAUCUGAGUUUGAAUCCUUGCUCUCUAGGAUGCAGGUGGCUUGAAGCAGAAUGCCACACCUGCAAGUUG	3.36
GCGGGUUGGUGUGUUUUCCCCUUGUGUACCAGAGCACAUUCCUUAGGGGACGGCUUUGGGGGUCCCACGAGACAUGGACUAGGAGUUUAAGCAGGACAGUGUGCGUGCAC	0.649
AUGCAUCAGACCCUGCCAGACGUGGGCCUGCUUCUUGGCUCACCCACGUUUUGCCUUUCUCCUGCCCCAAAUCAGGCAGCUCCCUUGGAGCAGGGUUUCCUCAGAUGAGG	0.226

Study 2
Target: Ras GTPase-activating protein-binding protein 1, full length (G3BP1, Homo sapiens, UniProt Q13283)
Chain of UniProt Q13283 (whole entry, looked up): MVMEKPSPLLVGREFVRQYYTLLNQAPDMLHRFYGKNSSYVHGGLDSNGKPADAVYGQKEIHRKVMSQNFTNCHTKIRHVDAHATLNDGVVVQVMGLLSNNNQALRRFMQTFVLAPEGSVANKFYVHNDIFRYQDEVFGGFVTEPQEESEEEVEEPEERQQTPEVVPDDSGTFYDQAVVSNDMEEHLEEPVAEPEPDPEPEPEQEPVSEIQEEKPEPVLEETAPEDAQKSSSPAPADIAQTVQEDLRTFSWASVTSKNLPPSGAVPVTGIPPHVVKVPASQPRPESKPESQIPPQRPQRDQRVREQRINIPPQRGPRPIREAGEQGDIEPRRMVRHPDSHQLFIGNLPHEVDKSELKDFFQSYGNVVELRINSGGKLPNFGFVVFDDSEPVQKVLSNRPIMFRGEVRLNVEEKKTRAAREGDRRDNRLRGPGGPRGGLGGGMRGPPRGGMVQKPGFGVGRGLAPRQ
Technique: RNA Bind-n-Seq
Molecule type: RNA
Matrix: in vitro
Concentration: 200 nM
Notes: whole 134-nt RNA, ends assumed
With: 150 mM LiCl
Relative to: input library
Direction: higher = stronger binding
Each molecule: 7-deaza-guanosine replaces G
All sequences stand within: GGGAGUUCUACAGUCCGACGAUC … UGGAAUUCUCGGGUGUCAAGG
Oligonucleotide	log2 enrichment
GUCCUGUGCUACACAUCGUAUGUACCGAAUCGGGGAAAAAAAGGGGAGGGGAAAGGGGAAAGUAUUAUGUUACGCCGUUCGGAUCUGCAC	0.366
UCCUCAAGUCCUGUGCUACACAUCGUAUGUACCGAAUCGGAGGGAGGGAGGAAAGUAUUAUGUUACGCCGUUCGGAUCUGCACUUCCAGC	-0.907
CUGUGCUACACAUCGUAUGUACCGAAUCGGGCCCCCCCGGGCCCCCCCGGCCCCCCCGGGGAAAGUAUUAUGUUACGCCGUUCGGAUCUG	-0.574
CUGUGCUACACAUCGUAUGUACCGAAUCGGGGUUUUUUUGGUUUUUUUGGGUUUUUUUGGGGAAAGUAUUAUGUUACGCCGUUCGGAUCU	1.2
UCCUGUGCUACACAUCGUAUGUACCGAAUCGGGGUUUUUGGGGUUUUUGGUUUUUGGGGAAAGUAUUAUGUUACGCCGUUCGGAUCUGCA	0.0346
AGUCCUGUGCUACACAUCGUAUGUACCGAAUCGGAAAAAGGGAAAAAGGAAAAAGGGAAAGUAUUAUGUUACGCCGUUCGGAUCUGCACU	-1.07
UUCAAAGCGUUCGAAUGAGGAGACUGAUGACUAUGGGAAGGCGCAGGUAGCCAAAAGCAGCAGCAAGGAAUCCAGGUCAUCCAAGCUCCA	-1.91
GCAGGAAGUAAAAACAAAUGGAAAUGCUUCGGAUAGUAAAAGGGGUGGGGGUUGCUAAGGAAAGGGUGGGAUGGGAGUGGGUAAAGAGUU	0.209

Study 3
Target: Prothrombin, mature alpha-thrombin (F2, Homo sapiens, UniProt P00734)
Technique: aptamer microarray, sandwich
Molecule type: DNA with 2'F-ANA
Matrix: in vitro
Concentration: 200 nM
Notes: whole 15-mer aptamer, many near background
With: Cy3 exosite-II aptamer, 400 nM
Direction: higher = stronger binding
Oligonucleotide: GGTTGGTGTGGTTGG
Modification	mean fluorescence intensity
2'F-ANA at 1 2 5 6 8 9 10 15	47.5 a.u.
2'F-ANA at 4 5 7 8 9 14 15	46.7 a.u.
2'F-ANA at 3 4 5 6 9 12 13 14	53.5 a.u.
2'F-ANA at 1 3 4 5 8 11 13 14	52.9 a.u.
2'F-ANA at 1 2 3 4 5 11 12 15	86.6 a.u.
2'F-ANA at 4 5 11 13 14	43.3 a.u.
2'F-ANA at 1 2 3 6 11 13 14 15	59.4 a.u.
2'F-ANA at 2 5 6 9 10 14	48.9 a.u.
2'F-ANA at 6 7 9	439 a.u.
2'F-ANA at 1 2 3 5 6 8 9 12 15	132 a.u.
2'F-ANA at 1 2 4 5 8 11 13 14 15	46.9 a.u.
2'F-ANA at 2 3 4 6 7 8 10 14	175 a.u.
2'F-ANA at 2 3 9 13 14	437 a.u.
2'F-ANA at 1 2 3 4 7 12 14	81.2 a.u.
2'F-ANA at 2 4 5 9 10 12 13 15	67 a.u.
2'F-ANA at 2 3 7 9 10 13 14 15	296 a.u.
2'F-ANA at 2 3 4 5 6 12	202 a.u.
2'F-ANA at 1 2 5 7 10 11 14	51.6 a.u.
2'F-ANA at 3 8 10 11 13 15	457 a.u.
2'F-ANA at 1 2 3 5 9 10 12 14 15	46.1 a.u.
2'F-ANA at 1 2 4 11 12 13	176 a.u.

Study 4
Target: Histone acetyltransferase KAT6A, winged helix 1, GST fusion (KAT6A, Homo sapiens, UniProt Q92794, residues 1-85)
Technique: protein binding microarray
Molecule type: double-stranded DNA, one strand shown
Matrix: in vitro
Concentration: not given
Notes: 8-mer, flanks averaged, mean of 2 arrays, mostly near background
Relative to: not given
Direction: higher = stronger binding
Residues (chain): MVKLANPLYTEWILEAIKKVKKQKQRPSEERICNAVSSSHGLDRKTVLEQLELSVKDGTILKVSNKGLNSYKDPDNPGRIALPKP
Oligonucleotide	E-score
CCGGGTCA	0.204
AACGGTCC	0.127
ACGACATA	-0.138
GTGGTGGA	-0.13
ACTACAGT	-0.158
AGTCAGGC	-0.0414
ATGCAAAT	-0.161
AGATCGCC	0.136
ATCAGGAC	-0.113
AAAGCACC	-0.102
AGCATGCA	-0.153
TACTTGAA	-0.268
ACCAACAT	-0.0788
CCAGTGCG	0.173
AGACTAGA	-0.219
TGGCAACA	-0.285
TACATTAA	-0.183
AGATGCCC	-0.0776
CCAGTCAG	-0.115
GTGTTGGA	-0.291
AAGTGAGG	-0.213
CATCGTGG	-0.0204

A few entries again (study 1):
Oligonucleotide	RBNS enrichment (R)
UCCCAUCAGGCUCCUUGGAAAGUGCUUCUACUUCCGAAGCCAACCCUGAGGGGCACUCAGCCAGCUCUGACCAGGACCCUGUGGCAGACAGAGAGGGCAGCCCGGUCUCC	0.378
AGGCUUUCAUUUCACUUCAGAUUCAGCGGUGGGAGAGUGAGCUAGUACUGUCCUAACCCUGGCUUUUCAGUUAAUGUUUCCAUCUGUGAAGCUUGGAAACACAGCUGGGA	0.554
CGGGUGCCGUGGCUCAUGCCUGUCAUCCCAGCAUUUGGGAGGCUGAGGCAGGCAGAUCACCUGAGGCCAGGAGUUCGAGACCAGCCUGGCUGGCUAGCAUGGUGAGACCG	14
CUUUGCUAUGUAGCUUAGAGUGACCUUAAACUUAUGAUCCCCCUGCCUCCACCUCCUCAAUGCCGUACCACUAUACCAGUUUGAGUGGUGCUGGGUAUGGAACCCAGGGC	0.353
AACCCUUCCAGUCCCAGUGCUGCCAAGCGGCGCCGCACGUAACCCUCAGCCCUGGUGGCGGCAGAGAAGCGGGCGAGGCACUGUGGUCGCUGAGGGGGUUGGCUGGGUCU	0.319
UACUACUAAAAGCCAGAAAGAACAGAACAGUGGCCUCAGGAGAUCUGAGUUUGAAUCCUUGCUCUCUAGGAUGCAGGUGGCUUGAAGCAGAAUGCCACACCUGCAAGUUG	3.36
GCGGGUUGGUGUGUUUUCCCCUUGUGUACCAGAGCACAUUCCUUAGGGGACGGCUUUGGGGGUCCCACGAGACAUGGACUAGGAGUUUAAGCAGGACAGUGUGCGUGCAC	0.649
AUGCAUCAGACCCUGCCAGACGUGGGCCUGCUUCUUGGCUCACCCACGUUUUGCCUUUCUCCUGCCCCAAAUCAGGCAGCUCCCUUGGAGCAGGGUUUCCUCAGAUGAGG	0.226
